Published values from different studies.
Every numbered part comes from another study and shows a few of its results, in no order.
UniProt P10721, sequence (whole entry, unmodified, looked up): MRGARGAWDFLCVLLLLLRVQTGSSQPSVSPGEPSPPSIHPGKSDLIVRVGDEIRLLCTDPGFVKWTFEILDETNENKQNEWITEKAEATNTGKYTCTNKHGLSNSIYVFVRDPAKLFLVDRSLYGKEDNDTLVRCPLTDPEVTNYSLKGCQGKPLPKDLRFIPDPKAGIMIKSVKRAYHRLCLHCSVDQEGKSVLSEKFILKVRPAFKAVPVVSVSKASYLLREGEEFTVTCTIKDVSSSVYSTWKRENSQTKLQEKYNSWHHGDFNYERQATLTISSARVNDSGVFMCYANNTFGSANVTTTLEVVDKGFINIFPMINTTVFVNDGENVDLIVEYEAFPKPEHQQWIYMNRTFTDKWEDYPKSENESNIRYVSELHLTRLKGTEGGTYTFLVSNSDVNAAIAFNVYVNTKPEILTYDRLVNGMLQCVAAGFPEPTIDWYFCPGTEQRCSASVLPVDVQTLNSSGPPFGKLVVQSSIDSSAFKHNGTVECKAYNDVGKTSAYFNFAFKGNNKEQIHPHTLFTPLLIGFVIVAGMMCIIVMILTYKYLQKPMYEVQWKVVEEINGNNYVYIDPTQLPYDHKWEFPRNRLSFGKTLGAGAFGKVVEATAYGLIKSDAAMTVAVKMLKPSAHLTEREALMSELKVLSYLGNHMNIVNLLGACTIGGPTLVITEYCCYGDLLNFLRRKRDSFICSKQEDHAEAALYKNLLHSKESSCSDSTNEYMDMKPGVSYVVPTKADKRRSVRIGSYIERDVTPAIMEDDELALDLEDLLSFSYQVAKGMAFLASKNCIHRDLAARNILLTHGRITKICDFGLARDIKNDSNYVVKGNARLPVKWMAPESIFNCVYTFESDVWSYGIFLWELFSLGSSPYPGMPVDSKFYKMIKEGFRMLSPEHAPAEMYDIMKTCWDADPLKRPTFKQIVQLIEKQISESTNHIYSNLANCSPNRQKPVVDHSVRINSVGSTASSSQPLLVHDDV
UniProt Q96J92, sequence (whole entry, looked up): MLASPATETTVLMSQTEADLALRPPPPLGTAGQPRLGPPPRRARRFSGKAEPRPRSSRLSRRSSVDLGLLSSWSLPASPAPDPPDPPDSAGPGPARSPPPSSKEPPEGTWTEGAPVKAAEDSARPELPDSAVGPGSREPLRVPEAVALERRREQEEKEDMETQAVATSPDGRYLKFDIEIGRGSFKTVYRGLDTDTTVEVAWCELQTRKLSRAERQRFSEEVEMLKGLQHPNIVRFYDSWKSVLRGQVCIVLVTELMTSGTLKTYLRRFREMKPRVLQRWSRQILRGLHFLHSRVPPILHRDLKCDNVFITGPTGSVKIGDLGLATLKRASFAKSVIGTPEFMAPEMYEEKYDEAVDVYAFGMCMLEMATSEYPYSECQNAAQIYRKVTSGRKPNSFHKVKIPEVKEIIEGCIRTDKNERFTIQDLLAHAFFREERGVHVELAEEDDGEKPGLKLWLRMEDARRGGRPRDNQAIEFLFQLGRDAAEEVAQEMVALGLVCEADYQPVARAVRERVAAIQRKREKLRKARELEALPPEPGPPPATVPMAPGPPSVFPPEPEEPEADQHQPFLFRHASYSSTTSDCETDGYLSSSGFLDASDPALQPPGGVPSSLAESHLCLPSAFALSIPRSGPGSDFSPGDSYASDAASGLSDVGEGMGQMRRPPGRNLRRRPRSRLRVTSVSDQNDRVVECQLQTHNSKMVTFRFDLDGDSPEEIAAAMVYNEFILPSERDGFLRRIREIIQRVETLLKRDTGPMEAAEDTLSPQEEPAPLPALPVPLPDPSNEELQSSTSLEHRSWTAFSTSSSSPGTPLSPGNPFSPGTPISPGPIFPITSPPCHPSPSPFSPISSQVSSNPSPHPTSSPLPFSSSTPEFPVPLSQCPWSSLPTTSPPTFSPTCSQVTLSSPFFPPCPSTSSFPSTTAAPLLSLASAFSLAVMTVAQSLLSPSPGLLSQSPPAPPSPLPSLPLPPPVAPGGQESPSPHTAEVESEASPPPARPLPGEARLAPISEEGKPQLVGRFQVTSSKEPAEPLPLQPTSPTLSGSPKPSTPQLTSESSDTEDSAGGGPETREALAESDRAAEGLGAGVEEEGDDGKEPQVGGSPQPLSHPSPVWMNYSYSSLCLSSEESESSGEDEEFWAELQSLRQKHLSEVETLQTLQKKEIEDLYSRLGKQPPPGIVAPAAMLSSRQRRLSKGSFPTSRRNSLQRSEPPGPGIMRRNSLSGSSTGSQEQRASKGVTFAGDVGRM
UniProt O75582, sequence (whole entry, looked up): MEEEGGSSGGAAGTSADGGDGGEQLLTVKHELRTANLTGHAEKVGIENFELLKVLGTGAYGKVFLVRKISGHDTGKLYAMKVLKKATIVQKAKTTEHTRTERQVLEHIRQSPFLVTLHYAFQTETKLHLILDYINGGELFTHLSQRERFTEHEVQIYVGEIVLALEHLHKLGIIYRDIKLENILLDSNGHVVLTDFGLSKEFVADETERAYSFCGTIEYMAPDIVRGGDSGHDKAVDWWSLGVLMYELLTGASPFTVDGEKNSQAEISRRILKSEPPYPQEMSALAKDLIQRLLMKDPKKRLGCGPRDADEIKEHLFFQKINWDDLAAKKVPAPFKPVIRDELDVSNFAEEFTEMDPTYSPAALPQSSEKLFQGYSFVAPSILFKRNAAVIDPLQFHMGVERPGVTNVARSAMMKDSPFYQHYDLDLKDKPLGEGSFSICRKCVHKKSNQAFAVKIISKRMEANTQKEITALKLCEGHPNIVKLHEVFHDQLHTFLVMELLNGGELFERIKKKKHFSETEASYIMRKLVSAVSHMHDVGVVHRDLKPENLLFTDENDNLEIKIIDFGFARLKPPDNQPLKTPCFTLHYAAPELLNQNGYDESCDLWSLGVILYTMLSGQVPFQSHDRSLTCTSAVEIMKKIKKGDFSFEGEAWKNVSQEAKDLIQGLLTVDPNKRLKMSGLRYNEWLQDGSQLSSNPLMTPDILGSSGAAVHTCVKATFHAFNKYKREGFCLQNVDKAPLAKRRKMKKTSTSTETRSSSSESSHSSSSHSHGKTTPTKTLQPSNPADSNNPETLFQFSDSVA
UniProt Q99759, sequence (whole entry, looked up): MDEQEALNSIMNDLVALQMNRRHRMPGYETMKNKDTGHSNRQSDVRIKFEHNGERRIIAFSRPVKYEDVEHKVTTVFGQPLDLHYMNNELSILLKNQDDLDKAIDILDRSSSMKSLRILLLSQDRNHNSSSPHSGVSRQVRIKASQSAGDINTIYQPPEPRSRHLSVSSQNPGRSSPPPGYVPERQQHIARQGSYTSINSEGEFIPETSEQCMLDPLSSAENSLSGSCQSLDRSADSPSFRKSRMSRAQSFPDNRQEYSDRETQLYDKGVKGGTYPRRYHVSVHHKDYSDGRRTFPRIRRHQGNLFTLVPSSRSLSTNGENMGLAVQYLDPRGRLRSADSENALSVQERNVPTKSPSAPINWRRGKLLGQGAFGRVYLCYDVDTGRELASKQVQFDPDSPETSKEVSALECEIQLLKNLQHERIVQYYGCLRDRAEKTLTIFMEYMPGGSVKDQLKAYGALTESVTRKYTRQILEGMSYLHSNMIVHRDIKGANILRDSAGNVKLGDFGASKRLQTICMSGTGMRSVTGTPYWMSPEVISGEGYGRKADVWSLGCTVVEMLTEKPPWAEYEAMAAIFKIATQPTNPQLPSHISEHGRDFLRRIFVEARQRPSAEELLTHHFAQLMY
UniProt Q16644, sequence (whole entry, looked up): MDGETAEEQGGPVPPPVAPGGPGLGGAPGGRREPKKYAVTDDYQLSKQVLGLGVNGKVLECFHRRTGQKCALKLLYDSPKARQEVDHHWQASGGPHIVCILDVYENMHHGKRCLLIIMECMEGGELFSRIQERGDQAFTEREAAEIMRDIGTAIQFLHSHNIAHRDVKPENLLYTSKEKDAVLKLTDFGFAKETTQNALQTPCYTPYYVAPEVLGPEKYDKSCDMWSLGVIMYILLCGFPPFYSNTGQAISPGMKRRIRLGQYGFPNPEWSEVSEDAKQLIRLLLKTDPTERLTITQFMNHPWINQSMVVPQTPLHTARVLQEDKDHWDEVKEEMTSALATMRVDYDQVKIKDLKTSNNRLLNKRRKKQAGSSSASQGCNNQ
UniProt O95747, sequence (whole entry, looked up): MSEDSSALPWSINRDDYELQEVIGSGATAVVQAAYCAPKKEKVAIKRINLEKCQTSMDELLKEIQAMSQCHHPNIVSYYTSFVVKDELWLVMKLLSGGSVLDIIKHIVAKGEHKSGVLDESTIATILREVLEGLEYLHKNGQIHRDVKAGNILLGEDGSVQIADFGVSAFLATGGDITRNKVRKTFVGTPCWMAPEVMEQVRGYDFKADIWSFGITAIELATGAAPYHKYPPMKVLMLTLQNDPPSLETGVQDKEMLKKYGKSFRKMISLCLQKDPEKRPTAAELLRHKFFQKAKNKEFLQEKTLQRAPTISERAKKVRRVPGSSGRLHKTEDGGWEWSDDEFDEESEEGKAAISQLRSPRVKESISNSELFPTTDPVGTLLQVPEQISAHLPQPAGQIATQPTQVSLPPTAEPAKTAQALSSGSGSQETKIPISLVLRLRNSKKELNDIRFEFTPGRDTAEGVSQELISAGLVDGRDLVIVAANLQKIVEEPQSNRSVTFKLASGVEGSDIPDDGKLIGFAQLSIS
UniProt Q00534, sequence (whole entry, looked up): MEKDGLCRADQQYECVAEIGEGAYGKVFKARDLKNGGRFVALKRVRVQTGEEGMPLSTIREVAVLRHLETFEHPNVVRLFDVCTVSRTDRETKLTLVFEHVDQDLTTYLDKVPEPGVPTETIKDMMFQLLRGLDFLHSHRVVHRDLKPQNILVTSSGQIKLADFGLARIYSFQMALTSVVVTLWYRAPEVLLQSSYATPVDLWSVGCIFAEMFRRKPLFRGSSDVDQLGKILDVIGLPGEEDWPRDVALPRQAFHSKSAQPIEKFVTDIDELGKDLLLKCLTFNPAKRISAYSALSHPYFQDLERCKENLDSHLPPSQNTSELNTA

Block 1
SMILES: CC(C)n1cnc(-c2ccc(F)cc2)c1-c1ncc(C(=O)Nc2ccc(N3CCN(C)CC3)cc2)[nH]1
test	system	conditions	patients with adverse event [%]
Phase 2a trial, item: hyperlipidaemia	human, idiopathic pulmonary fibrosis	all compound arms total, grade 3	0
Phase 2a trial, item: blood fibrinogen increased	human, idiopathic pulmonary fibrosis	all compound arms total, grade 2	0
item: periorbital oedema, grade 4	idiopathic pulmonary fibrosis patients	dose not given, all compound arms pooled	0
Phase 2a trial, item: hyperuricaemia	human, idiopathic pulmonary fibrosis	all compound arms total, grade 2	0

Block 2 — technique: RNA Bind-n-Seq; molecule type: RNA; matrix: in vitro; concentration: 20 nM; setting: 6-mer, flanks averaged, single round; added: 150 mM LiCl; reference: input library; direction: higher = stronger binding
Target: TAR DNA-binding protein 43, full length, His tag (TARDBP, Homo sapiens, UniProt Q13148, residues 1-414)
Oligonucleotide	6-mer enrichment (R)
UCGGAU	0.95
UCGCCG	0.868
GGGUCA	0.99
CGAUUU	0.904
AGACCC	0.926
CGAAGC	0.84
UUCGCA	0.852
AACUGA	0.796

Block 3 — effect on: cell-free assay; technique: competition with immobilised ligand; concentration: 0.1 µM
Structure (SMILES): CS(=O)(=O)N1CCCC(NC(=O)[C@H](CCC2CCCCC2)NC(=O)c2ccc(CNC(=O)c3cnc4ccccn34)cc2)C1 (stereo partly drawn)
target	remaining binding
MET (Homo sapiens, UniProt P08581, Y1235D)	99%
MAPKAPK5 (Homo sapiens, UniProt Q8IW41)	100%
MAP3K3 (Homo sapiens, UniProt Q99759)	100%
WNK4 (Homo sapiens, UniProt Q96J92)	80%
KIT (Homo sapiens, UniProt P10721, D816H)	44%
EGFR (Homo sapiens, UniProt P00533)	76%
KIT (Homo sapiens, UniProt P10721, D816V)	100%
NEK1 (Homo sapiens, UniProt Q96PY6)	68%
TEK (Homo sapiens, UniProt Q02763)	92%
NEK5 (Homo sapiens, UniProt Q6P3R8)	89%
PIK3CA (Homo sapiens, UniProt P42336, E542K)	78%
CAMK2A (Homo sapiens, UniProt Q9UQM7)	100%
Ribosomal protein S6 kinase alpha-4, C-terminal kinase domain (RPS6KA4, Homo sapiens, UniProt O75676)	100%
PIK3CG (Homo sapiens, UniProt P48736)	96%
OXSR1 (Homo sapiens, UniProt O95747)	94%

Block 4 — SMILES: COc1ccc(COc2ccc(Cc3cnc(N)nc3N)cc2OC)cc1; effect on: enzyme activity; action: inhibitor; concentration: 0.5 µM; reference: control
target	remaining activity
HIPK2 (Homo sapiens, UniProt Q9H2X6)	103%
SRMS (Homo sapiens, UniProt Q9H3Y6)	95.9%
Cyclin-dependent kinase 6, with cyclin D3 (CDK6, Homo sapiens, UniProt Q00534)	94.5%
MAPKAPK3 (Homo sapiens, UniProt Q16644)	96%
RPS6KA5 (Homo sapiens, UniProt O75582)	103%

Further values, each from its own experiment
SMILES	cell line	test	conditions	quantity	result
CC(C)(C)c1cnc(CSc2cnc(NC(=O)C3CCN(CCCCSc4cccc5c4C(=O)N(C4CCC(=O)NC4=O)C5=O)CC3)s2)o1 (stereo not drawn)	HH	CCK-8	500 nM	viability	0%
